Experimental data from different studies.
Lines come from different studies, so protocols differ.

| SMILES | organism | test | system | conditions | MIC |
| --- | --- | --- | --- | --- | --- |
| CCc1nc(N)nc(N)c1OCCCOc1ccccc1CCC(=O)O | Mycobacterium avium subsp. hominissuis | resazurin microtiter | 104 | – | 0.1 µg/mL |
| CCCCCCCCCC(=O)N[C@@H](Cc1c[nH]c2ccccc12)C(=O)N[C@H](CC(N)=O)C(=O)N[C@@H](CC(=O)O)C(=O)N[C@@H]1C(=O)NCC(=O)N[C@@H](CCCN)C(=O)N[C@@H](CC(=O)O)C(=O)N[C@H](C)C(=O)N[C@@H](CC(=O)O)C(=O)NCC(=O)N[C@H](CO)C(=O)N[C@@H]([C@H](C)CC(=O)O)C(=O)N[C@@H](CC(=O)c2ccccc2N)C(=O)O[C@@H]1C | Staphylococcus simulans | broth microdilution | 22, Mueller-Hinton broth, Mg2+ 10 mg/L | 16 h, 30 °C, together with: Ca2+ 1.0 mM | 1 µg/mL |
| CN[C@H](CC(C)C)C(=O)N[C@H]1C(=O)N[C@@H](CC(N)=O)C(=O)N[C@H]2C(=O)N[C@H]3C(=O)N[C@H](C(=O)N[C@H](C(=O)O)c4cc(O)cc(O)c4-c4cc3ccc4O)[C@H](O)c3ccc(c(Cl)c3)Oc3cc2cc(c3O[C@@H]2O[C@H](CO)[C@@H](O)[C@H](O)[C@H]2O[C@H]2C[C@](C)(N)[C@H](O)[C@H](C)O2)Oc2ccc(cc2Cl)[C@H]1O | Streptococcus pneumoniae | – | ATCC 49619, wild type, CAMHB, lysed horse blood | – | 3.1 µg/mL |
| CN(C)c1ncc(O)c2c1C[C@H]1C[C@H]3[C@H](N(C)C)C(O)=C(C(N)=O)C(=O)[C@@]3(O)C(O)=C1C2=O.Cl.Cl | Streptococcus pneumoniae | – | clinical isolates | – | 1 µg/mL |
| C[C@@H](O)[C@H]1C(=O)N2C(C(=O)O)=C(S[C@@H]3CN[C@H](C(=O)N(C)C)C3)[C@H](C)[C@H]12 | Klebsiella oxytoca | broth microdilution | clinical isolate RKI 609/16 | – | 16 µg/mL |
| CN1CC(O)=C(C(=O)NC(C(=O)NC2C(=O)N3C2SC(C)(C)C3C(=O)O)c2ccccc2)C1=O (stereo not drawn) | Escherichia coli | broth microdilution | ATCC 25922 wild type | no clavulanic acid | 25 µg/mL |
| CNC(C)C1CCC(N)C(OC2C(N)CC(N)C(OC3OCC(C)(O)C(NC)C3O)C2O)O1 (stereo not drawn) | Pseudomonas aeruginosa | – | clinical isolate RKI-No_253/15 | – | > 8 µg/mL |
| c1ccc(OCCn2c(CNC34CC5CC(CC(C5)C3)C4)nc3ccccc32)cc1 | Streptococcus pneumoniae | – | ATCC 49619 | – | 4 µg/mL |
| CC(C)C[C@@H]1NC(=O)[C@@H](Cc2ccccc2)NC(=O)[C@H](CCN)NC(=O)[C@@H](NC(=O)[C@H](CCN)NC(=O)[C@@H](N)[C@@H](C)O)CCNC(=O)[C@H]([C@@H](C)O)NC(=O)[C@H](CCN)NC(=O)[C@H](CCN)NC1=O | Escherichia coli | MIC of compound in combination, checkerboard | BW25113 | concentration not given, lowest-FICI combination, together with: vancomycin | 12.5 µg/mL |
| CC1(C)S[C@@H]2[C@H](NC(=O)[C@H](N)c3ccccc3)C(=O)N2[C@H]1C(=O)O | Pseudomonas aeruginosa | – | clinical isolate RKI-No_615/15 | – | > 16 µg/mL |
| CC[C@H](C)CCCCC(=O)N[C@@H](CCN)C(=O)N[C@H](C(=O)N[C@@H](CCN)C(=O)N[C@H]1CCNC(=O)[C@H]([C@@H](C)O)NC(=O)[C@H](CCN)NC(=O)[C@H](CCN)NC(=O)[C@H](CC(C)C)NC(=O)[C@@H](CC(C)C)NC(=O)[C@H](CCN)NC1=O)[C@@H](C)O | Staphylococcus simulans | broth microdilution | 22, cation-adjusted Mueller-Hinton broth | – | 3 µM |
| NC[C@H]1O[C@H](O[C@H]2[C@H](O)[C@@H](O[C@H]3O[C@H](CO)[C@@H](O)[C@H](N)[C@H]3O)[C@H](N)C[C@@H]2N)[C@H](O)[C@@H](O)[C@@H]1O | Kocuria sp. | broth microdilution | sugar glider pouch or skin isolate, cation-adjusted Mueller-Hinton broth | 16 h, 37 °C, above 90% inhibition | 16 µg/mL |

Repeated from above:
| SMILES | organism | test | system | conditions | MIC |
| --- | --- | --- | --- | --- | --- |
| CN[C@H](CC(C)C)C(=O)N[C@H]1C(=O)N[C@@H](CC(N)=O)C(=O)N[C@H]2C(=O)N[C@H]3C(=O)N[C@H](C(=O)N[C@H](C(=O)O)c4cc(O)cc(O)c4-c4cc3ccc4O)[C@H](O)c3ccc(c(Cl)c3)Oc3cc2cc(c3O[C@@H]2O[C@H](CO)[C@@H](O)[C@H](O)[C@H]2O[C@H]2C[C@](C)(N)[C@H](O)[C@H](C)O2)Oc2ccc(cc2Cl)[C@H]1O | Streptococcus pneumoniae | – | ATCC 49619, wild type, CAMHB, lysed horse blood | – | 3.1 µg/mL |
